Published values from different studies.
± gives the spread as reported.
B1: designed binder (Homo sapiens); chain APTSSSTKKTQLQLEHLLLDLQMILNGINNYKNPKLTRMLTFKFYMPKKATELKHLQCLEEELKPLEEVLNLAQSKNFHFDPRDVVSNINVFVLELKGSETTFMCEYADETATIVEFLNRWITFCQSIISTLT
B2: CFH 1108-1231 S1191L/V1197A (Homo sapiens, UniProt P08603); sequence looked up; chain KCGPPPPIDNGDITSFPLSVYAPASSVEYQCQNLYQLEGNKRITCRNGQWSEPPKCLHPCVISREIMENYNIALRWTAKQKLYLRTGESAEFVCKRGYRLSSRSHTLRTTCWDGKLEYPTCAKR
B3: CFH domains 1108-1231 (Homo sapiens, UniProt P08603); sequence looked up; chain KCGPPPPIDNGDITSFPLSVYAPASSVEYQCQNLYQLEGNKRITCRNGQWSEPPKCLHPCVISREIMENYNIALRWRAKQKLYSRTGESVEFVCKRGYRLSSRSHTLRTTCWDGKLEYPTCAKR
B4: LILRB5 24-458 (Homo sapiens, UniProt O75023); sequence looked up; chain GTLPKPTLWAEPASVIARGKPVTLWCQGPLETEEYRLDKEGLPWARKRQNPLEPGAKAKFHIPSTVYDSAGRYRCYYETPAGWSEPSDPLELVATGFYAEPTLLALPSPVVASGGNVTLQCDTLDGLLTFVLVEEEQKLPRTLYSQKLPKGPSQALFPVGPVTPSCRWRFRCYYYYRKNPQVWSNPSDLLEILVPGVSRKPSLLIPQGSVVARGGSLTLQCRSDVGYDIFVLYKEGEHDLVQGSGQQPQAGLSQANFTLGPVSRSHGGQYRCYGAHNLSPRWSAPSDPLDILIAGLIPDIPALSVQPGPKVASGENVTLLCQSWHQIDTFFLTKEGAAHPPLCLKSKYQSYRHQAEFSMSPVTSAQGGTYRCYSAIRSYPYLLSSPSYPQELVVSGPSGDPSLSPTGSTPTPGPEDQPLTPTGLDPQSGLGRHLG
B5: IgG L:I27A; V domains shown; VH QVQLVQSGAEVKKPGASVKVSCKASGYTFTNYGLSWVRQAPGQGLEWMGWISANNGDTNYGQEFQGRVTMTTDTSTSTAYMELRSLRSDDTAVYYCARDSSSSWARWFFDLWGRGTLVTVSS; VL SYVLTQPPSVSVAPGKTARITCGGNAIGSKLVHWYQQKPGQAPVLVIYDDGDRPSGIPERFSGSNSGNTATLTISRVEAGDEADYYCQVWDTGSDPVVFGGGTKLTVL
B6: Kcnh1 7-136 (Mus musculus, UniProt Q60603); sequence looked up; chain RRGLVAPQNTFLENIVRRSNDTNFVLGNAQIVDWPIVYSNDGFCKLSGYHRAEVMQKSSACSFMYGELTDKDTVEKVRQTFENYEMNSFEILMYKKNRTPVWFFVKIAPIRNEQDKVVLFLCTFSDITAF
B7: C1S 438-688 S632A (Homo sapiens, UniProt P09871); chain IIGGSDADIKNFPWQVFFDNPWAGGALINEYWVLTAAHVVEGNREPTMYVGSTSVQTSRLAKSKMLTPEHVFIHPGWKLLEVPEGRTNFDNDIALVRLKDPVKMGPTVSPICLPGTSSDYNLMDGDLGLISGWGRTEKRDRAVRLKAARLPVAPLRKCKEVKVEKPTADAEAYVFTPNMICAGGEKGMDSCKGDAGGAFAVQDPNDKTKFYAAGLVSWGPQCGTYGLYTRVKNYVDWIMKTMQENSTPRED
B8: BBC3 (Homo sapiens, UniProt Q9BXH1-2); chain MKFGMGSAQACPCQVPRAASTTWVPCQICGPQPSLSLAEQHLESPVPSAPGALAGGPTQAAPGVRGEEEQWAREIGAQLRRMADDLNAQYERRRQEEQQRHRPSPWRVLYNLIMGLLPLPRGHRAPEMEPN
B9: PLXNB1 RBD 1746-1852 (Homo sapiens, UniProt O43157); sequence looked up; chain YRPLTLNALLAVGPGAGEAQGVPVKVLDCDTISQAKEKMLDQLYKGVPLTQRPDPRTLDVEWRSGVAGHLILSDEDVTSEVQGLWRRLNTLQHYKVPDGATVALVPC
B10: NRP1 (Arabidopsis thaliana); chain MVADKSKKSKIEEKGEEENLEQIDAELVLSIEKLQEIQDDLEKINEKASDEVLEVEQKYNVIRKPVYDKRNEVIQSIPGFWMTAFLSHPALGDLLTEEDQKIFKYLNSLEVEDAKDVKSGYSITFHFTSNPFFEDAKLTKTFTFLEEGTTKITATPIKWKEGKGLPNGVNHDDKKGNKRALPEESFFTWFTDAQHKEDAGDEIHDEVADIIKEDLWSNPLTYFNNDADEEDFDGDDDGDEEGEEDDDDEEEEDGEE
B11: Cacna1c 1647-1777 (Mus musculus, UniProt Q01815); sequence looked up; chain NALSLQAGLRTLHDIGPEIRRAISGDLTAEEELDKAMKEAVSAASEDDIFRRAGGLFGNHVTYYQSDSRGNFPQTFATQRPLHINKTGNNQADTESPSHEKLVDSTFTPSSYSSTGSNANINNANNTALGR
B12: IGSF10 1941-2229 (Homo sapiens, UniProt Q6WRI0); sequence looked up; chain PRIEAASQKRTEVNFGDKLLLNCSATGEPKPQIMWRLPSKAVVDQQHRVGSWIHVYPNGSLFIGSVTEKDSGVYLCVARNKMGDDLILMHVSLRLKPAKIDHKQYFRKQVLHGKDFQVDCKASGSPVPEISWSLPDGTMINNAMQADDSGHRTRRYTLFNNGTLYFNKVGVAEEGDYTCYAQNTLGKDEMKVHLTVITAAPRIRQSNKTNKRIKAGDTAVLDCEVTGDPKPKIFWLLPSNDMISFSIDRYTFHANGSLTINKVKLLDSGEYVCVARNPSGDDTKMYKLD
B13: PUX4 (Arabidopsis thaliana, UniProt Q8RWU7); chain MSSKDKKPSKPSSSRGGIRTLSDLNRRSGPDSDSDSDGPQEYYTGGEKSGMLVQDPSKKDDVDEIFNQARQLGAVEGPLEPPPSSRSFTGTGRLLSGENVPTGNQQPEPVVHNIVFWSNGFTIDDGPLRKLDDPENASFLESIRKSECPKELEPADRRAPVHVNLMRKEEKCPERQKRRVSFQGVGRTLGGSNEGSGSSSPVAPDSAPIPIQTEPAPSQSLVIDETVPTTSIQLRLADGTRLVAKFNHHHTVNDIRGFIDSSRPGASLNYQLQTMGFPPKPLTDLTQTIEEAGLANSVVLQKF
Chain of UniProt P01024 (whole entry, looked up): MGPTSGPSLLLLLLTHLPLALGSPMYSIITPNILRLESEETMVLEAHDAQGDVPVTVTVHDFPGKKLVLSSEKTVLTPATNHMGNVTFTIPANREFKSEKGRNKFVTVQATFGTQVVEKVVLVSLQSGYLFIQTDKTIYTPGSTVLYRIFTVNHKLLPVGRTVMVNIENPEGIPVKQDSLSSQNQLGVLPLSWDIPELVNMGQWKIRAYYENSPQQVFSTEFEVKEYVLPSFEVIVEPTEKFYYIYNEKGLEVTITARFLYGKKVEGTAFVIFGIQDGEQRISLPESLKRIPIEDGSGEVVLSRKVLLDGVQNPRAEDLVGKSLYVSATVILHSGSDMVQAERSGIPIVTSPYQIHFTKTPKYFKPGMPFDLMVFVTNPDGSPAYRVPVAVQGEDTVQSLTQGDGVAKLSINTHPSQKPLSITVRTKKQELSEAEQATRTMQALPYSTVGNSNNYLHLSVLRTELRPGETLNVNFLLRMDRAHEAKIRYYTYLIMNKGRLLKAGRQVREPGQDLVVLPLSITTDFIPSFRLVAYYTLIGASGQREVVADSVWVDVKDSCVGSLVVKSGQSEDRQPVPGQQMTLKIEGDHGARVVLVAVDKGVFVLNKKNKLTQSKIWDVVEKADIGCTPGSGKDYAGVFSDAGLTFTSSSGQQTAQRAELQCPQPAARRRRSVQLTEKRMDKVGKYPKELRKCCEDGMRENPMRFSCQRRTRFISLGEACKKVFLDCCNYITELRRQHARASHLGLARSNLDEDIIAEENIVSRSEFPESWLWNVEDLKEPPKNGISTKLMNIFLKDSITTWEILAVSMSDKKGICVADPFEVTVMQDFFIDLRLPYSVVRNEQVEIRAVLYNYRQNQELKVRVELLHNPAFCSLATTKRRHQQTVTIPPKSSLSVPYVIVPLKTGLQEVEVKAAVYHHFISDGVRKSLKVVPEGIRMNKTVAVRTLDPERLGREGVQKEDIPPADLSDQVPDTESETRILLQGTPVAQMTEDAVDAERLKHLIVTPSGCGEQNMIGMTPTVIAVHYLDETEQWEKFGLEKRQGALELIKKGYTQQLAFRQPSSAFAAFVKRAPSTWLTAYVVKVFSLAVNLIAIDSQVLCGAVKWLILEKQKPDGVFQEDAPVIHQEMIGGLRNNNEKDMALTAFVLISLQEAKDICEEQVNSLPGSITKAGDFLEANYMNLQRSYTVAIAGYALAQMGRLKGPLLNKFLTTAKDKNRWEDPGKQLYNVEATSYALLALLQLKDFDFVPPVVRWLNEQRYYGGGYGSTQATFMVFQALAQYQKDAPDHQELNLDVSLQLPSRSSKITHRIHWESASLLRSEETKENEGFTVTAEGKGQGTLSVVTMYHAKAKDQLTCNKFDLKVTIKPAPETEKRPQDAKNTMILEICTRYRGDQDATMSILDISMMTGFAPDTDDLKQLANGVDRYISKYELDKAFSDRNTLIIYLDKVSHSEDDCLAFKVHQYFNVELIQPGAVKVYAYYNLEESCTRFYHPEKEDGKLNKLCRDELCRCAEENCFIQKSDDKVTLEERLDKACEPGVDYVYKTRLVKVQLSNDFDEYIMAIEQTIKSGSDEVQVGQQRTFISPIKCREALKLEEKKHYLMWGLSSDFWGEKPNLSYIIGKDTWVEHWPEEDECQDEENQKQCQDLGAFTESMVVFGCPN
Chain of UniProt P14780 (whole entry, looked up): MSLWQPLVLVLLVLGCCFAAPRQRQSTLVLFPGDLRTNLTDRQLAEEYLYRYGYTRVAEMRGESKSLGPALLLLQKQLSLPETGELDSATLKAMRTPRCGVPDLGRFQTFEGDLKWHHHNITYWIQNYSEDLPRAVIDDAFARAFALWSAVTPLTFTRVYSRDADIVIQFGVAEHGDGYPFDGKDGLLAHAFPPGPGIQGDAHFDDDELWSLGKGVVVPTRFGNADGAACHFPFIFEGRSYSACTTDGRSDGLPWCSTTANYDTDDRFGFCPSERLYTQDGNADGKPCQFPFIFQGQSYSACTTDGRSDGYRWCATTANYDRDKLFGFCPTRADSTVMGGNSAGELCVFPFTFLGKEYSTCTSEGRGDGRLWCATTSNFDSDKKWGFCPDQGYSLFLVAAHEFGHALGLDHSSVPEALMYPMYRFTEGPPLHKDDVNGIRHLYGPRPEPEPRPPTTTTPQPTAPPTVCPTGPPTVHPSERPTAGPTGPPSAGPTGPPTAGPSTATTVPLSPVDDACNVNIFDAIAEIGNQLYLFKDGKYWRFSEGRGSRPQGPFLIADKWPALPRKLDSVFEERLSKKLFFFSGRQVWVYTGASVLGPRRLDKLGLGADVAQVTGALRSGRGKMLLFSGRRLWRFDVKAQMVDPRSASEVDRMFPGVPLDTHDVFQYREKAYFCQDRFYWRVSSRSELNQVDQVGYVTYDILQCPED
Chain of UniProt Q92785 (whole entry, looked up): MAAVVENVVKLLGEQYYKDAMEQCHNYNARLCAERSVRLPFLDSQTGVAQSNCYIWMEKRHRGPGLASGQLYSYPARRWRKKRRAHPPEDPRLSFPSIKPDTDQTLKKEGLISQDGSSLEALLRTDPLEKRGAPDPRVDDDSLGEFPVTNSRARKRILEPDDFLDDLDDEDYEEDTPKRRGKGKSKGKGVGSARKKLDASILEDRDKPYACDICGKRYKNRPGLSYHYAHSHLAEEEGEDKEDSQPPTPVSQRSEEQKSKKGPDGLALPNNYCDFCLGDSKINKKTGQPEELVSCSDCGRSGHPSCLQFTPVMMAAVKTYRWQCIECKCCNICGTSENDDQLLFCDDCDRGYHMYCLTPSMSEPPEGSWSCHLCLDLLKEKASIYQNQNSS
Chain of UniProt P54609 (whole entry, looked up): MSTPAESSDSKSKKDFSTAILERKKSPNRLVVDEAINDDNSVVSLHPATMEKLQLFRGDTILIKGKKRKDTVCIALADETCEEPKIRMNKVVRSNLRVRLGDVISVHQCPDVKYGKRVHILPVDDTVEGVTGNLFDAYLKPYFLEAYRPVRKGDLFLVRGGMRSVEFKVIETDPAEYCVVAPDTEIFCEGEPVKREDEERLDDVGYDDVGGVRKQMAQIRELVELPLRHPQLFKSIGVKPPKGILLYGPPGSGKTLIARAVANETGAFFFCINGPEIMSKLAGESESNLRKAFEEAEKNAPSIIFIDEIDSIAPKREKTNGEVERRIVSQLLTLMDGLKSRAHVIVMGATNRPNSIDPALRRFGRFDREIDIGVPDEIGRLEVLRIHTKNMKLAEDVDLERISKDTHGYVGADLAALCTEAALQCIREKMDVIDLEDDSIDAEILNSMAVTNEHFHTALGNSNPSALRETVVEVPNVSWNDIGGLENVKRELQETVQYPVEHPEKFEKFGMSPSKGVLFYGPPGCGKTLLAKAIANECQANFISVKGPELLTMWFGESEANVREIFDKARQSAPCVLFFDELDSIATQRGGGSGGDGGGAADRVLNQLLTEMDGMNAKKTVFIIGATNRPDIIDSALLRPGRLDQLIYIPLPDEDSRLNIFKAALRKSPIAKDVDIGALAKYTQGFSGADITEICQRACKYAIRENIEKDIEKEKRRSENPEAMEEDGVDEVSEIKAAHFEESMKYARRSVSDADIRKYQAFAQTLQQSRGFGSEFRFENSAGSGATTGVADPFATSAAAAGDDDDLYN
Chain of UniProt P05155 (whole entry, looked up): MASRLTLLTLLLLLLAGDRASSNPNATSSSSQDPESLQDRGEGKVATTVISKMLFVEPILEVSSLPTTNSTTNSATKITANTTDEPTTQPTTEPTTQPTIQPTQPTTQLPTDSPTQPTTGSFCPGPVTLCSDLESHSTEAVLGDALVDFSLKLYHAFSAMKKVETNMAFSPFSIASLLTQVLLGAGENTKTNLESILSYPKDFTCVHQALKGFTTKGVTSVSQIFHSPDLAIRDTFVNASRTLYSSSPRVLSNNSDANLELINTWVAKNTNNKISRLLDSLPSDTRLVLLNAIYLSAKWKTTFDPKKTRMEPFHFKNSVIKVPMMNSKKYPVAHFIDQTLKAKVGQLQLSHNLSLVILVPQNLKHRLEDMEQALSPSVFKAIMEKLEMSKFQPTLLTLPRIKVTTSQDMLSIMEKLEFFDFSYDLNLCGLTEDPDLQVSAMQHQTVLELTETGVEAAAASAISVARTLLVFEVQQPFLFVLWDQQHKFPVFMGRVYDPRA
Chain of UniProt Q92730 (whole entry, looked up): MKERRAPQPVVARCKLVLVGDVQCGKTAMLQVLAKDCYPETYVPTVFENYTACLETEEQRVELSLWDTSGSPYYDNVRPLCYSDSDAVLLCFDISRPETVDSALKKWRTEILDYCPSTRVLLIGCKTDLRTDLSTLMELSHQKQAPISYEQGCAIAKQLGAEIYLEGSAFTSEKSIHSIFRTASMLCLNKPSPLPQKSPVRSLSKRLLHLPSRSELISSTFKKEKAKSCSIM
Chain of UniProt P25963 (whole entry, looked up): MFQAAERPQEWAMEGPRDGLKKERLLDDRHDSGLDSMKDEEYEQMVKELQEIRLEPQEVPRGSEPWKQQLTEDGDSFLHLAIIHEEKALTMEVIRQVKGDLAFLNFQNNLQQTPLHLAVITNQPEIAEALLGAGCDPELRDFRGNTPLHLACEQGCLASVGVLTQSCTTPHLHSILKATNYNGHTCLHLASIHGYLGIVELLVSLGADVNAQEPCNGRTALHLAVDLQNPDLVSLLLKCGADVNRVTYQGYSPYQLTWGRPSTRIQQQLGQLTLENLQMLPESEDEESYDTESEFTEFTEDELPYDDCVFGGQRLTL
Chain of UniProt Q8NEZ5 (whole entry, looked up): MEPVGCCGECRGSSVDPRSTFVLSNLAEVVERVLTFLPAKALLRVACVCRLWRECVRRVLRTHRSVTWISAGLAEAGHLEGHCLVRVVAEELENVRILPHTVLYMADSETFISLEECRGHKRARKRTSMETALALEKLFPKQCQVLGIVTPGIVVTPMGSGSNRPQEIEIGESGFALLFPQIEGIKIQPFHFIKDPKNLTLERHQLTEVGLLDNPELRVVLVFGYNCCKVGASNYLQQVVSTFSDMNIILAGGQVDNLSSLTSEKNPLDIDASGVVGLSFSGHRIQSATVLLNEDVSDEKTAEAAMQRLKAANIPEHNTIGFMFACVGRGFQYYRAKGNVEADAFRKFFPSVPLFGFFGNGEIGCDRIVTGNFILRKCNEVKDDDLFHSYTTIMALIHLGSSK

Molecule | target or system | assay | system | conditions | scale | quantity | value
B1 (designed binder) | IL2RA (UniProt P01589) | BLI | designed binder |  |  | Kd | 0.056 ± 0.009 µM
B2 (CFH 1108-1231 S1191L/V1197A) | C3 C3dg 955-1303 (Homo sapiens, UniProt P01024) | SPR |  |  |  | Kd | 1.9 ± 0.2 µM
KLLMIIHDRREFAKFEKEKMNAKWDTQENPIYKSAINNFKNPNYGRKAGL (ITGB1 752-801 P786A (Homo sapiens, UniProt P05556-5); sequence looked up) | Tln1 309-405 (Mus musculus, UniProt P26039) | NMR titration |  |  |  | Kd | 269 µM
B3 (CFH domains 1108-1231) | C3 996-1303 (Homo sapiens, UniProt P01024) | SPR |  |  |  | Kd | 6.8 ± 0.2 µM
B4 (LILRB5 24-458) | EPHB1 18-540 (Homo sapiens, UniProt P54762) | BLI | Fc fusion |  |  | Kd | 0.061 µM
Histone H3.1 fragment (Homo sapiens) | DPF2 270-391 (Homo sapiens, UniProt Q92785) | ITC |  |  |  | Kd | > 100 µM
CREBBP TAZ1 (Homo sapiens) | NFE2L2 99-160, fluorescein label (Homo sapiens, UniProt Q16236) | fluorescence titration |  |  |  | Kd | 3.7 ± 10.7 µM
SSECQRHLYSILCCKESSDPNSCNSTGQLMPSKMDTCSSHLNNSIYKKLLA (F2r 380-430 (Mus musculus, UniProt P30558); sequence looked up) | MYH9 1-776 (Homo sapiens, UniProt P35579) | SPR |  | 25 °C |  | Kd | 0.242 µM
GGCKIFGSLAFLKCCYSL (HER2 hybrid peptide 369-377 (Homo sapiens, UniProt P04626); 99mTc-labelled) | ERBB2 (Homo sapiens, UniProt P04626) | radioligand binding | peptide, SKBR3 |  |  | Kd | < 0.05 µM
B5 (IgG L:I27A) | IL13 fragment (Homo sapiens) | SPR | antibody |  |  | Kd | 0.000519 µM
B6 (Kcnh1 7-136) | Kcnh1 552-708 (Mus musculus, UniProt Q60603) | SPR |  | 25 °C, two-state model, added: chlorpromazine 30 µM |  | Kd | 1.6 µM
B7 (C1S 438-688 S632A) | SERPING1 111-500 (Homo sapiens, UniProt P05155) | SPR |  | steady-state, added: Ca2+ |  | Kd | 2.7 µM
B8 (BBC3) | BCL2L1 fragment (Homo sapiens) | ITC |  |  |  | Kd | 0.001 µM
F9 heavy and light chains, activated (UniProt P00740) | F8 activated, A1/A2/A3-C1-C2 R336Q (Homo sapiens) | FXa generation, factor Xa generation rate |  | added: FX |  | Kd | 0.0013 µM
B9 (PLXNB1 RBD 1746-1852) | RND1 5-200 (Homo sapiens, UniProt Q92730) | SPR |  |  |  | Kd | 1.51 ± 0.42 µM
SDEMPNNAKRRRRSQSMIANKRIHQAFQEDEGDEDWEEEEHKPKAKRR (abo1 25-72 (Schizosaccharomyces pombe, UniProt O14114)) | spt16 1-442 (Schizosaccharomyces pombe, UniProt O94267) | BLI |  |  |  | Kd | 3.7 ± 0.37 µM
GEPPPGKPADDAGLV (BPC-157 (Homo sapiens)) | FBXO22 (Homo sapiens, UniProt Q8NEZ5) | SPR | peptide |  |  | Kd | 0.1 µM
B10 (NRP1) | H2B fragment (Xenopus laevis) | SPR |  |  |  | Kd | 18.5 µM

Molecule | target or system | assay | system | conditions | scale | quantity | value
Histone H3.1 fragment (Homo sapiens) | YEATS2 200-349 (Homo sapiens, UniProt Q9ULM3) | ITC |  |  |  | Kd | > 1000 µM
ptsH fragment (Escherichia coli) (sequence not shown) | ptsI fragment (Escherichia coli) | NMR titration |  | with Ficoll-70 |  | Kd | 30.5 ± 4.1 µM
B11 (Cacna1c 1647-1777) | Jph2 1-440 S165V (Mus musculus, UniProt Q9ET78) | ITC |  |  |  | Kd | 8.87 µM
SCN2A IQ region (Homo sapiens) (sequence not shown) | CALM1 (Homo sapiens, UniProt P0DP23) | fluorescence titration |  | added: CaCl2 |  | Kd | 0.0063 µM
FGB dimer (Homo sapiens) | CDH2 extracellular domain 1-551 (Homo sapiens) | SPR |  | Langmuir fit, added: CaCl2 |  | Kd | 0.0124 µM
LPDTDDRHRIEEKRKRTYETFKSIMKKSPFNGP (Rela 289-321 (Mus musculus, UniProt Q04207); sequence looked up) | NFKBIA 67-206 (Homo sapiens, UniProt P25963) | ITC | peptide | NaCl 150 mM |  | Kd | 1.16 ± 0.013 µM
colistin | Salmonella enterica serovar Choleraesuis | broth microdilution | clinical isolate RKI-No 532/14-1 |  |  | MIC | 8 µg/mL
GCVRLHESCLGQQVPCCDPAATCYCYGRGDNDLRCYCR (designed binder) | ITGAV/ITGB3 K562 cells | flow cytometry | designed binder, U87MG |  |  | Kd | 0.0024 µM
B12 (IGSF10 1941-2229) | RET 29-635 (Homo sapiens, UniProt P07949) | ITC |  |  |  | Kd | 0.128 µM
ENSSEEEFFDAHEGFSDSDE (Pitpnm1 343-362 (Mus musculus, UniProt O35954); sequence looked up) | Vapb 1-125 K43L/K45L (Mus musculus, UniProt Q9QY76) | ITC |  |  |  | Kd | 0.87 µM
TIMP1 (Homo sapiens, UniProt P01033) | MMP9 (Homo sapiens, UniProt P14780) | BLI |  |  |  | Kd | 0.059 µM
B13 (PUX4) | CDC48A 1-463 (Arabidopsis thaliana, UniProt P54609) | ITC |  | 25 °C |  | Kd | 3.6 ± 0.7 µM
ACRGDGWCG (cyclic RGD peptide; disulfide-cyclized, aminocaproic acid, FITC) | ITGAV/ITGB5 ectodomain, soluble, clasped | fluorescence polarisation | peptide |  |  | Kd | 0.0052 µM
Peginesatide | UT7/EPO | tyrosine phosphorylation, LC-MS/MS phosphoproteomics, trypsin, refers to: JAK2 tyrosine 813 |  | 10 nM, 15 min, added: 10 U/mL EPO | relative to: vehicle | phosphorylation level | 6.2 fold
petF ferredoxin (Synechocystis sp. PCC 6803, UniProt P27320) | narB R351K (Synechococcus sp. PCC 7942) | UV-visible difference titration |  |  |  | Kd | 1.4 ± 0.6 µM
PVKDEYEFDEDDEQDRVPPVDDKHLLKKDYRKETKSN (ANKRD11 342-378 (Homo sapiens, UniProt Q6UB99); sequence looked up) | STAG2/RAD21 subcomplex | ITC | peptide |  |  | Kd | 0.1 ± 0.01 µM
GRGRGRGRGRGRGRGRGRGRGRGRGRGRGRGRGRGRGRGR ((GR)20 20 repeats; TAMRA label N-terminal) | TNPO1 W460A/W730A (Homo sapiens, UniProt Q92973-2) | fluorescence polarisation | peptide |  |  | Kd | 0.0471 ± 0.0041 µM

A few entries again:
Molecule | target or system | assay | system | conditions | scale | quantity | value
PVKDEYEFDEDDEQDRVPPVDDKHLLKKDYRKETKSN (ANKRD11 342-378 (Homo sapiens, UniProt Q6UB99); sequence looked up) | STAG2/RAD21 subcomplex | ITC | peptide |  |  | Kd | 0.1 ± 0.01 µM
B3 (CFH domains 1108-1231) | C3 996-1303 (Homo sapiens, UniProt P01024) | SPR |  |  |  | Kd | 6.8 ± 0.2 µM
B4 (LILRB5 24-458) | EPHB1 18-540 (Homo sapiens, UniProt P54762) | BLI | Fc fusion |  |  | Kd | 0.061 µM
CREBBP TAZ1 (Homo sapiens) | NFE2L2 99-160, fluorescein label (Homo sapiens, UniProt Q16236) | fluorescence titration |  |  |  | Kd | 3.7 ± 10.7 µM
Histone H3.1 fragment (Homo sapiens) | DPF2 270-391 (Homo sapiens, UniProt Q92785) | ITC |  |  |  | Kd | > 100 µM
